Measured values gathered from unrelated publications.
Each line is one published result; not all experiments were run side by side. Values joined by “and” are separate records of one study, mostly repeats; a detail may differ. Numbers after ± are the reported error.
Organism: Plasmodium falciparum

O=C(NCCN1CCCC1)c1cc(-c2ccc(CN3CCOCC3)cc2)nc2ccc(F)cc12 — break point of parasite clearance (18S rRNA qPCR; human; 800 mg): 47.4 h and 53.9 h and 60 h and 62.2 h and 53.4 h and 51.3 h and 58.8 h and 55.7 h
Cc1[nH]c(C)c(-c2ccc(OCCn3cnc(Cl)c3Cl)cc2)c(=O)c1Br — EC50 (parasite growth, SYBR Green; 3D7 wild type; 72 h): 1100 ± 180 nM
COc1ccc(COC[C@H](C)N2C[C@@H](C)[C@H](CN(C)S(=O)(=O)c3ccc(F)cc3)OCCCCCOc3ccc(NC(=O)Nc4c(C)noc4C)cc3S2(=O)=O)cc1 — GI50 (asexual blood-stage growth; Dd2, multidrug-resistant): 856 nM
COc1ccccc1N1CCN(Cc2c(NC(C)=O)sc(C)c2C)CC1 — EC50 ratio (parasite growth, SYBR Green; 72 h; baseline: 3D7-E182D over 3D7): 2.5
NCCN(C(=O)c1ccc(Cl)cc1Cl)c1ccc(OCc2ccc(Cl)cc2)cc1 — IC50 (parasite growth, inhibitor, SYBR Green I; Cam3.1 R539T (MRA-1240)): 3660 nM
NC12CC3CC(CC(C3)C1)C2 — IC50 (7G8): 5010 nM
COC(=O)C1=CNC=C(C(=O)OC)C1c1ccc(Cl)c([N+](=O)[O-])c1 — EC50 ratio (parasite growth, SYBR Green; 72 h; baseline: 3D7-E182D over 3D7): 1.8
Cc1nnc(-c2ccc3ccn(CC(=O)Nc4ccccc4Cl)c3c2)o1 — EC50 fold shift (Dd2 PfATP4 I398F P990R D1247Y; 72 h; baseline: mutant over parental): 5 fold
CP(=O)(O)CCCN — IC50 (W2): 2510 nM
C[C@H]1[C@@H](O)O[C@@H]2O[C@@]3(C)CC[C@H]4[C@H](C)CC[C@@H]1[C@@]24OO3 — parasite survival (ring-stage survival; 5150; 700 nM, 6 h): 0.16%
COc1ccc(-n2ccnc2SCC(=O)Nc2cc(C(F)(F)F)ccc2Cl)c(OC)c1 — EC50 ratio (parasite growth, SYBR Green; 72 h; baseline: 3D7-E182D over 3D7): 7.6
COc1ccc(CCN(C)CCCC(C#N)(c2ccc(OC)c(OC)c2)C(C)C)cc1OC (stereo not drawn) — IC50 (3D7): 1580 nM
O=C1C(O)=C([C@H]2CC[C@H](c3ccc(Cl)cc3)CC2)C(=O)c2ccccc21 — EC50 (parasite growth): 0.904 ± 0.23 nM
CN(Cc1ccco1)c1ncnc2ccc(-c3ccoc3)cc12 — activity (growth, SYBR green; FVO; concentration not given, 36 h): active
CNc1ccccc1-c1cc2c(cc1CO)OCO2 — activity class (parasite growth; concentration not given): inactive
CC(CN1c2ccccc2Sc2ccccc21)N(C)C (stereo not drawn) — IC50 (3D7): 12600 nM
CSc1nc2nc(C)c(Cc3cccc(C(F)(F)F)c3)c(C)n2n1 — EC50 (parasite growth, SYBR Green; 3D7 wild type; 72 h): 471 ± 87 nM
Cn1cc(C(F)(F)F)nc1-c1ccc(OCC(O)CNCCOc2ccc(O)c(C(N)=O)c2)cc1 (stereo not drawn) — IC50 (7G8): 10000 nM
CC1(C)N=C(N)N=C(N)N1c1ccc(Cl)cc1 — resistance index (growth, [3H]-hypoxanthine uptake; FCR3; 72 h; baseline: FCR3 IC50 over 3D7 IC50): 150
C=CCc1ccccc1OCC(O)CNC1(C)CCC(C(C)(C)NC(=O)CBr)CC1 (stereo not drawn) — IC50 (GB4): 794 nM
Cc1cc(Nc2ccc(S(F)(F)(F)(F)F)cc2)n2nc(C(C)(F)F)nc2n1 — EC50 (Dd2 β5 S28L resistant): 8.4 ± 3.7 nM
CCCCOc1ccccc1C(=O)NCc1csc(-c2ccccc2)n1 — EC50 ratio (parasite growth, SYBR Green; 72 h; baseline: 3D7-E182D over 3D7): 1.4
Cl.Oc1cccc2c1[nH]c1c(C3=CC4(O)CC/C=C\CCCCN5CCC3C3(CC6/C=C\CCCCN6C43)C5)nccc12 (single isomer, unassigned; (+)) — selectivity index (D6, chloroquine-sensitive; baseline: Vero IC50 over D6 IC50): 25
CN(C)CCCN1c2ccccc2CCc2ccccc21 — IC50 (D10): 15800 nM
c1nc2nc3c(c(Nc4ccc5c(c4)CCC5)n2n1)CCC3 — EC50 (parasite growth, SYBR Green; 3D7 wild type; 72 h): 354 ± 110 nM
OC(CN1CCC(Cc2ccc(F)cc2)CC1)c1ccc(Cl)cc1 (stereo not drawn) — IC50 (HB3): 1260 nM
CN(C)CCCN1c2ccccc2C(C)(C)c2ccccc21 — merozoite invasion (FVO, purified merozoites, erythrocytes; 25 µM): 56%
